# Measured values pooled from the literature.
# Lines come from different studies, so protocols differ. ± marks the error that the study gave.
# gag-pol reverse transcriptase: Gag-Pol polyprotein, reverse transcriptase (gag-pol, Human immunodeficiency virus 1, UniProt P03366)
# Cytochrome P450 2A13: Cytochrome P450 2A13 (Homo sapiens, UniProt Q16696)
# Chain of UniProt Q16696 (whole entry, looked up): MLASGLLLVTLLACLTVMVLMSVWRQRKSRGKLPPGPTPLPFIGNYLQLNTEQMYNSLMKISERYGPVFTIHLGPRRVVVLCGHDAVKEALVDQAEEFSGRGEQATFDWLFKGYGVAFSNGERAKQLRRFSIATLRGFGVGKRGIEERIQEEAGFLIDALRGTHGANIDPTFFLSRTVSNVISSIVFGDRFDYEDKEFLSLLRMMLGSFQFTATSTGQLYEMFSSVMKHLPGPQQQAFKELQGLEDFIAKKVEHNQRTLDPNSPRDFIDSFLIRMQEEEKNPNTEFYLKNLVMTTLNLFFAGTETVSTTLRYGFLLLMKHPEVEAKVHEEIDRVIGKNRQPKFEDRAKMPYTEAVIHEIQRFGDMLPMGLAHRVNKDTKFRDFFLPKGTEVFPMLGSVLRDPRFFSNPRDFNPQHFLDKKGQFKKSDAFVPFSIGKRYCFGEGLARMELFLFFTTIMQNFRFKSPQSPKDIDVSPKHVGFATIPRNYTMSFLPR
# Uncharacterized protein: Uncharacterized protein (Equus caballus, UniProt Q38RB9)
# Chain of UniProt Q00987 (whole entry, looked up): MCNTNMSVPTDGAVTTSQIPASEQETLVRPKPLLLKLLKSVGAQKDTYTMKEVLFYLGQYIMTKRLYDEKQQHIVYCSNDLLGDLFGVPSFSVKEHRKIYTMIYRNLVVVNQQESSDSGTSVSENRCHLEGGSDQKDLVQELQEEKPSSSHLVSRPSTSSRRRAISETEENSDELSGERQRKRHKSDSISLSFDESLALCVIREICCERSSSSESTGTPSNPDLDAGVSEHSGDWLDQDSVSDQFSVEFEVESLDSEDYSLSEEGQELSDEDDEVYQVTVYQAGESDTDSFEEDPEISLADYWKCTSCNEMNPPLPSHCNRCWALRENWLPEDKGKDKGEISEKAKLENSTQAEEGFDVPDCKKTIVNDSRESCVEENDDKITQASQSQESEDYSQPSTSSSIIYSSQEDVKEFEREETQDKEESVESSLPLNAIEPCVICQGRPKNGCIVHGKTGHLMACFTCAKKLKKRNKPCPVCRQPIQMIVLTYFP
# Chain of UniProt P05183 (whole entry, looked up): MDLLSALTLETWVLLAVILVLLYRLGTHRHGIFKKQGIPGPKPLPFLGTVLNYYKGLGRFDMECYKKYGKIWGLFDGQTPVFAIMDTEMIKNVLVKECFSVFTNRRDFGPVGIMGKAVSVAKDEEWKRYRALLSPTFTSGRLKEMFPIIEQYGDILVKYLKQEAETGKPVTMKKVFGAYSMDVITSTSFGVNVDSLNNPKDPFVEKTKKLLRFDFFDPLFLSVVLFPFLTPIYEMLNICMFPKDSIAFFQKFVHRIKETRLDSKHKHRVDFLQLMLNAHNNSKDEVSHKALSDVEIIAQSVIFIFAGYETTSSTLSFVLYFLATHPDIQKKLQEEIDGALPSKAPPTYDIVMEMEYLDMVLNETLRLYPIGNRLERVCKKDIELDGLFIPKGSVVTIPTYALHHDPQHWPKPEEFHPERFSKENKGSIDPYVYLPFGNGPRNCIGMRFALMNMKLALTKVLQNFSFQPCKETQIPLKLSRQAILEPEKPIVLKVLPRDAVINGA
# Chain of UniProt Q9HC35 (whole entry, looked up): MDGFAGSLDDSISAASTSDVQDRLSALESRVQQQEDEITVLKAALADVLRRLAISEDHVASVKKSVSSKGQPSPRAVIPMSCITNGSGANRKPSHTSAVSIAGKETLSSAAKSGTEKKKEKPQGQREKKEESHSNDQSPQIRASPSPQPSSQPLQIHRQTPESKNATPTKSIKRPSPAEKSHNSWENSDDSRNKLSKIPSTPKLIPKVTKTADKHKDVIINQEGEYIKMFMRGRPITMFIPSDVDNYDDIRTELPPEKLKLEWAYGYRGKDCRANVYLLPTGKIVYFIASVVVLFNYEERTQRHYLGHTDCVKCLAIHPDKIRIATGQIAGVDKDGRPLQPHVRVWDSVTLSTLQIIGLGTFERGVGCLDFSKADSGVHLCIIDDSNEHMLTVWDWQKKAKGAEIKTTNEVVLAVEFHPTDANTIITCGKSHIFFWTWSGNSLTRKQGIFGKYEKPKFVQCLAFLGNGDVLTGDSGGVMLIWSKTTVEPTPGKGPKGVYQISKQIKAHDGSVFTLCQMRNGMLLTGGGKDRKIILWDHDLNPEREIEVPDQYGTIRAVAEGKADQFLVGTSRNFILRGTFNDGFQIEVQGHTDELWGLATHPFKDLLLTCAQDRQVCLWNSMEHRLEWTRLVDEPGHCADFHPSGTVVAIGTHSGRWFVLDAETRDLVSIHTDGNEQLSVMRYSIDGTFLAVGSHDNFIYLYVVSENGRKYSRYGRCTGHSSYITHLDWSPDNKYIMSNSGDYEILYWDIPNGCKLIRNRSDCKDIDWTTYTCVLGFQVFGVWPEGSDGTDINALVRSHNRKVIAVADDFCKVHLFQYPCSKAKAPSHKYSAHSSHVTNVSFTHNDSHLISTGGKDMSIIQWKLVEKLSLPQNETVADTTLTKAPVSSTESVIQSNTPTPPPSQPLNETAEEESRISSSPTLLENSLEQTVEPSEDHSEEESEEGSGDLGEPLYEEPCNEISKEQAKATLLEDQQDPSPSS
# Chain of UniProt Q05940 (whole entry, looked up): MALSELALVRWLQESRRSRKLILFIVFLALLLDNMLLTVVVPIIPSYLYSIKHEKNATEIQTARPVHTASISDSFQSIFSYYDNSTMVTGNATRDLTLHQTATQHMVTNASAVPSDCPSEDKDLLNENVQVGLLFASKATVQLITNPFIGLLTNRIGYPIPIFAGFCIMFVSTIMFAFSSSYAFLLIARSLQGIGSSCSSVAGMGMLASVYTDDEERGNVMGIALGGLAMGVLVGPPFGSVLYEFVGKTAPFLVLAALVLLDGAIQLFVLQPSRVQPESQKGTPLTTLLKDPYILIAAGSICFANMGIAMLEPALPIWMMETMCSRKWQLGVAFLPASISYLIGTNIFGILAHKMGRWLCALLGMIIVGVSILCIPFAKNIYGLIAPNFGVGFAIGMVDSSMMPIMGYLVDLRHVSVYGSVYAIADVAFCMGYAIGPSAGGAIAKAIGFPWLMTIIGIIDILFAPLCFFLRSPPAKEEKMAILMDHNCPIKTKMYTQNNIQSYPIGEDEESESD
# Chain of UniProt Q8BHN3 (whole entry, looked up): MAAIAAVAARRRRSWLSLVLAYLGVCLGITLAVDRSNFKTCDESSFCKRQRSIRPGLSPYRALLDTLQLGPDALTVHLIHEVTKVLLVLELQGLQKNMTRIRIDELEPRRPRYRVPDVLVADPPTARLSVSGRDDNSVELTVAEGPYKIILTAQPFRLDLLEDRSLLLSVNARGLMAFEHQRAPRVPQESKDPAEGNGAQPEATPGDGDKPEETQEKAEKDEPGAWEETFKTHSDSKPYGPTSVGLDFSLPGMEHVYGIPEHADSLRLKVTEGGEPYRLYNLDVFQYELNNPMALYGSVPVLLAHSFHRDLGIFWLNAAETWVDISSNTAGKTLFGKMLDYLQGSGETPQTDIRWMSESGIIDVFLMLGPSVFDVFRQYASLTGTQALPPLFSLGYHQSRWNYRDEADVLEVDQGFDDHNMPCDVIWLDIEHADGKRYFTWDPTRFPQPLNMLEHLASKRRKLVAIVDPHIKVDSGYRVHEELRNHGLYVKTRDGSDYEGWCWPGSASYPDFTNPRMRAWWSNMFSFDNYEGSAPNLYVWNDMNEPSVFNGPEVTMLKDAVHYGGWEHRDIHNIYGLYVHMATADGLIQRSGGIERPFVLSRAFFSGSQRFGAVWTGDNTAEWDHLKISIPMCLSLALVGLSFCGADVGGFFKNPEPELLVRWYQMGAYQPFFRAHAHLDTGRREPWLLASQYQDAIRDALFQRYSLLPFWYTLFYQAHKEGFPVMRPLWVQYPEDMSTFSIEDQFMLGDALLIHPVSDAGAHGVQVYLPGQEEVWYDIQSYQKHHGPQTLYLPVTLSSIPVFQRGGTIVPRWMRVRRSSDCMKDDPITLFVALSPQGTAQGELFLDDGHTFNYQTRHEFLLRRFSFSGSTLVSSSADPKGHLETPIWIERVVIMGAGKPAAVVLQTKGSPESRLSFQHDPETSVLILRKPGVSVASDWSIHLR
# Chain of UniProt P48039 (whole entry, looked up): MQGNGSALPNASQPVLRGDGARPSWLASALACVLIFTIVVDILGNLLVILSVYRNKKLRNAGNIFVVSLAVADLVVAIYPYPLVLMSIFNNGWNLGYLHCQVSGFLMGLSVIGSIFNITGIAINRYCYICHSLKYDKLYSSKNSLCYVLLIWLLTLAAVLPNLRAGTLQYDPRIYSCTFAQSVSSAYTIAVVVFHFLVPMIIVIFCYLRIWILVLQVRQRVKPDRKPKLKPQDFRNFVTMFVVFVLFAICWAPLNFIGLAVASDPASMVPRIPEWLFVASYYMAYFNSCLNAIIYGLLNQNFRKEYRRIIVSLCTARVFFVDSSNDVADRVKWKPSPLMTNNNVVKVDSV
# Chain of UniProt P02708 (whole entry, looked up): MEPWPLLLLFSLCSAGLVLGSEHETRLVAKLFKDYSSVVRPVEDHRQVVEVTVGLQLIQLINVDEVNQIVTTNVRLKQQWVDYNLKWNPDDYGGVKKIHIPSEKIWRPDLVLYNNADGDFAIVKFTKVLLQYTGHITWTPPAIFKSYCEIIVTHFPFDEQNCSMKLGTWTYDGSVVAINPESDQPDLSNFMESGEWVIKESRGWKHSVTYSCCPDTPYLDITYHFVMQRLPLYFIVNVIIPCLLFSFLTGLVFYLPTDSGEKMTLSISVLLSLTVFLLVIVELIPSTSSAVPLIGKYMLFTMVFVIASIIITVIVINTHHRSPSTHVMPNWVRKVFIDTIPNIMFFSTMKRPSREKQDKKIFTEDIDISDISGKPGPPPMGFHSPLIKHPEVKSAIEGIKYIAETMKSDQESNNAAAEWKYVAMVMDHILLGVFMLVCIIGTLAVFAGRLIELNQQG
Structure (SMILES),target,assay,system,setting,IC50
COc1cccc(C2SCC(=O)N2c2nc(-c3ccc(S(=O)(=O)N4CCCC4)cc3)cs2)c1 (stereo not drawn),gag-pol reverse transcriptase,,,,> 4000 nM
O=[N+]([O-])c1cc(NCCCCCCN2C[C@H](O)[C@@H](O)[C@H](O)[C@H]2CO)cc(-c2ccncc2)c1,"Ganab (Mus musculus, UniProt Q8BHN3)","enzyme activity, inhibitor",,together with: 4-methylumbelliferyl substrate,< 1 nM
COc1cc(C(=O)N2CC[C@@H](O)[C@@H](N)C2)cc2nc(-c3cc4ccccc4n3CC3CC3)n(C)c12,"CHRNA1 (Homo sapiens, UniProt P02708)","intracellular calcium, antagonist, fluorescence",,,1580 nM
CC(C)C[C@@H](CNC(=O)N[C@@H](C)CNC(=O)N1CCC[C@H]1C(N)=O)NC(=O)[C@H](C)NC(=O)[C@H](Cc1c[nH]c2ccccc12)NC(=O)[C@H](Cc1ccc(O)cc1)NC(=O)[C@H](CCC(=O)O)NC(=O)[C@H](C)NC(=O)[C@H](Cc1ccccc1)NC(=O)[C@H](CO)NC(=O)[C@@H](N)[C@@H](C)O,"E3 ubiquitin-protein ligase Mdm2, with p53 (MDM2, Homo sapiens, UniProt Q00987)",inhibitor,,,54.6 nM
CCOC(=O)[C@H]1Cc2c(cc([N+](=O)[O-])cc2[N+](=O)[O-])[C@@H](O)[C@@]12C(=O)Nc1ccc(C)cc12,"MDM2 (Homo sapiens, UniProt Q00987)",,,,980 ± 70 nM
CCN1C(=O)SCC1C1(OC)CC2CC(CCC(C)C=CC=CCCC(C)=CC(=O)O2)O1 (stereo not drawn),"Actin, alpha skeletal muscle, pyrene-labeled (ACTA1, Oryctolagus cuniculus, UniProt P68135)","actin polymerization, pyrene actin",,,> 10000 nM
COc1cc(Nc2ncc(F)c(Nc3ccc4c(n3)NC(=O)C(C)(C)O4)n2)cc(OC)c1OC,"MTNR1A (Homo sapiens, UniProt P48039)",,,,> 10000 nM
CC#Cc1ccc2ccc3cccc4ccc1c2c34,Cytochrome P450 2A13,"enzyme activity, inhibitor",,"20 min, pH 7.4",15000 to 80000 nM
O=C1CSC(c2ccc(Cl)cc2)N1c1cccc(S(=O)(=O)Nc2nccs2)c1 (stereo not drawn),gag-pol reverse transcriptase,,,,> 4000 nM
CC[C@H](C)[C@H](NC(=O)[C@H](Cc1c[nH]cn1)NC(=O)[C@H](Cc1ccc(O)cc1)NC(=O)[C@H](CC(C)C)NC(=O)[C@@H](NC(=O)CNC(=O)[C@H](CC(=O)O)NC(=O)[C@H](Cc1ccccc1)NC(=O)[C@H](CC(=O)O)NC(=O)[C@H](C)N)C(C)C)C(=O)O,Uncharacterized protein,"peptide binding, competitor, competitive radioligand binding",purified horse MHC class I,pH 7,92 nM
O=c1cc(-c2ccccc2)oc2cc(O)ccc12,Cytochrome P450 2A13,"enzyme activity, inhibitor",,"20 min, pH 7.4",400 to 10000 nM
COc1cc2c(cc1OC)C1CC(=O)C(CC(C)C)CN1CC2 (stereo not drawn),"SLC18A2 (Homo sapiens, UniProt Q05940)",binding,,,112 nM
CC[C@H](C)[C@H](NC(=O)[C@H](CC(C)C)NC(=O)[C@@H](NC(=O)[C@H](CCCCN)NC(=O)CNC(=O)[C@H](CCCCN)NC(=O)[C@H](Cc1ccccc1)NC(=O)[C@H](CC(=O)O)NC(=O)[C@@H](N)CCCNC(=N)N)[C@@H](C)CC)C(=O)O,Uncharacterized protein,"peptide binding, competitor, competitive radioligand binding",purified horse MHC class I,pH 7,9.1 nM
C[C@H]1CN(c2n[nH]c3nc(N[C@H]4CC[C@H](NS(=O)(=O)CCC(F)(F)F)CC4)ncc23)CCO1,"Echinoderm microtubule-associated protein-like 4 (Homo sapiens, UniProt Q9HC35)",biochemical,,,≥ 20000 nM
COc1ccc2c(c[n+](C)c3c4cc5c(cc4ccc23)OCO5)c1OC,"Cytochrome P450 3A2 (Cyp3a2, Rattus norvegicus, UniProt P05183)","enzyme activity, inhibitor","Sprague-Dawley rat, male","30 (unit not given), pH 7.4",17600 nM

# For quick reference, copied from above:
Structure (SMILES),target,assay,system,setting,IC50
O=C1CSC(c2ccc(Cl)cc2)N1c1cccc(S(=O)(=O)Nc2nccs2)c1 (stereo not drawn),gag-pol reverse transcriptase,,,,> 4000 nM
